Experimental data from different studies.
Lines come from different studies, so protocols differ. “And” joins repeats or separate records; there may be more than shown.
B1: human TUBB; sequence looked up; chain MREIVHIQAGQCGNQIGAKFWEVISDEHGIDPTGTYHGDSDLQLDRISVYYNEATGGKYVPRAILVDLEPGTMDSVRSGPFGQIFRPDNFVFGQSGAGNNWAKGHYTEGAELVDSVLDVVRKEAESCDCLQGFQLTHSLGGGTGSGMGTLLISKIREEYPDRIMNTFSVVPSPKVSDTVVEPYNATLSVHQLVENTDETYCIDNEALYDICFRTLKLTTPTYGDLNHLVSATMSGVTTCLRFPGQLNADLRKLAVNMVPFPRLHFFMPGFAPLTSRGSQQYRALTVPELTQQVFDAKNMMAACDPRHGRYLTVAAVFRGRMSMKEVDEQMLNVQNKNSSYFVEWIPNNVKTAVCDIPPRGLKMAVTFIGNSTAIQELFKRISEQFTAMFRRKAFLHWYTGEGMDEMEFTEAESNMNDLVSEYQQYQDATAEEEEDFGEEAEEEA
B2: coatomer subunit beta, human; sequence looked up; chain TAAENVCYTLINVPMDSEPPSEISLKNDLEKGDVKSKTEALKKVIIMILNGEKLPGLLMTIIRFVLPLQDHTIKKLLLVFWEIVPKTTPDGRLLHEMILVCDAYRKDLQHPNEFIRGSTLRFLCKLKEAELLEPLMPAIRACLEHRHSYVRRNAVLAIYTIYRNFEHLIPDAPELIHDFLVNEKDASCKRNAFMMLIHADQDRALDYLSTCIDQVQTFGDILQLVIVELIYKVCHANPSERARFIRCIYNLLQSSSPAVKYEAAGTLVTLSSAPTAIKAAAQCYIDLIIKESDNNVKLIVLDRLIELKEHPAHERVLQDLVMDILRVLSTPDLEVRKKTLQLALDLVSSRNVEELVIVLKKEVIKTNNVSEHEDTDKYRQLLVRTLHSCSVRFPDMAANVIPVLMEFLSDNNEAAAADVLEFVREAIQRFDNLRMLIVEKMLEVFHAIKSVKIYRGALWILGEYCSTKEDIQSVMTEIRRSLGEIPIVESEIKKEAGELKPEEEITVGPVQKLVTEMGTYATQSALSSSRPTKKEEDRPPLRGFLLDGDFFVAASLATTLTKIALRYVALVQEKKKQNSFVAEAMLLMATILHLGKSSLPKKPITDDDVDRISLCLKVLSECSPLMNDIFNKECRQSLSHMLSAKLEEEKLSQKKESEKRNVTVQPDDPISFMQLTAKNEMNCKEDQFQLSLLAAMGNTQRKEAADPLASKLNKVTQLTGFSDPVYAEAYVHVNQYDIVLDVLVVNQTSDTLQNCTLELATLGDLKLVEKPSPLTLAPHDFANIKANVKVASTENGIIFGNIVYDVSGAASDRNCVVLSDIHIDIMDYIQPATCTDAEFRQMWAEFEWENKVTVNTNMVDLNDYLQHILKSTNMKCLTPEKALSGYCGFMAANLYARSIFGEDALANVSIEKPIHQGPDAAVTGHIRIRAKSQGMALSLGDKINLSQKKTSI

The MIC of `gentamicin` is reported as < 0.5 µg/mL (Klebsiella pneumoniae; broth microdilution; ATCC 43816 wild type, cation-adjusted MHB).
`B1 (human TUBB)` — result for “log2 fold change”: -0.63 (PP6C (human); co-immunoprecipitation, IP-MS; CYB5R4 knockout cells; concentration not given; relative to: CYB5R4 knockout over parental).
With `colistin` the MIC was 4 µg/mL (Klebsiella pneumoniae; broth microdilution; ATCC 13883).
`azithromycin` gave an MIC of 10 µM (Klebsiella pneumoniae; broth microdilution; ATCC 700603; without peptide).
`B2 (coatomer subunit beta, human)`: “log2 fold change” 0.0142 (CYB5R4 knockout human cells; PP4 interaction, 3xFLAG-PP4C IP-MS; concentration not given; relative to: CYB5R4 KO over parental).
`Polymyxin B` has a catalase activity of 0.278 U/mol and 0.298 U/mol and 0.312 U/mol (Klebsiella pneumoniae; ATCC 43863; concentration not given).
With `colistin` the MIC was ≤ 0.5 µg/mL (Klebsiella pneumoniae; broth microdilution; clinical isolate RKI-No_229/15).
For `colistin`, the MIC was 0.78 µM (Klebsiella pneumoniae; 10145, RPMI 1640 10% FBS; 18 to 24 h, 37 °C).
The MIC of `colistin trifluoroacetate` is reported as 0.5 µg/mL (Klebsiella pneumoniae; broth microdilution; ATCC 13883).
Under “MIC fold shift”, `colistin` is recorded as 2 (Klebsiella pneumoniae; NCTC 13424; relative to: 5% CO2 over ambient air).
